Published values pooled from the literature.
Parts stem from different laboratories: compare values within a part only.
Sequence of UniProt P07332 (whole entry, looked up): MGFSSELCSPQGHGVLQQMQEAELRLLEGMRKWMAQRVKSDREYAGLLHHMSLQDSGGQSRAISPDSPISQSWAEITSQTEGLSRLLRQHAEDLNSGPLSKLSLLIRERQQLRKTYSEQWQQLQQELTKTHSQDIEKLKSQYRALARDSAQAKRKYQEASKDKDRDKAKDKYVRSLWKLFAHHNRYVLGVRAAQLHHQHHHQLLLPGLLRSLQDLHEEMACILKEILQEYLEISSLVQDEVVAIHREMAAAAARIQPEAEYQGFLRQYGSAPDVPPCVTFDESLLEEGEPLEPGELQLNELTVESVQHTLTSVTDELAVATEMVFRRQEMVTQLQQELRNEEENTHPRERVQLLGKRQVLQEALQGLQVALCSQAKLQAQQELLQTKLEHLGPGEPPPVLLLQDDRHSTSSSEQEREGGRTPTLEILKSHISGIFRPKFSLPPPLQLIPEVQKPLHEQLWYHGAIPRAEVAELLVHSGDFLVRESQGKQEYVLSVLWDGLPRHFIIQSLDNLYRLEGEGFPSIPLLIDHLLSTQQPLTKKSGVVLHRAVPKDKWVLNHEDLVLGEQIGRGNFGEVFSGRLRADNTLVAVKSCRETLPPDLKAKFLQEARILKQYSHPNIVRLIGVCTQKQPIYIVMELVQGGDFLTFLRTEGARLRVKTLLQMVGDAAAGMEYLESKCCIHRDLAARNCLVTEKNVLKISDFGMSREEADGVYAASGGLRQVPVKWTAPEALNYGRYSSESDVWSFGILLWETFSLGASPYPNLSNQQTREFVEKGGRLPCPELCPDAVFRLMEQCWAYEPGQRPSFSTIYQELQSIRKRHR
Sequence of UniProt P29376 (whole entry, looked up): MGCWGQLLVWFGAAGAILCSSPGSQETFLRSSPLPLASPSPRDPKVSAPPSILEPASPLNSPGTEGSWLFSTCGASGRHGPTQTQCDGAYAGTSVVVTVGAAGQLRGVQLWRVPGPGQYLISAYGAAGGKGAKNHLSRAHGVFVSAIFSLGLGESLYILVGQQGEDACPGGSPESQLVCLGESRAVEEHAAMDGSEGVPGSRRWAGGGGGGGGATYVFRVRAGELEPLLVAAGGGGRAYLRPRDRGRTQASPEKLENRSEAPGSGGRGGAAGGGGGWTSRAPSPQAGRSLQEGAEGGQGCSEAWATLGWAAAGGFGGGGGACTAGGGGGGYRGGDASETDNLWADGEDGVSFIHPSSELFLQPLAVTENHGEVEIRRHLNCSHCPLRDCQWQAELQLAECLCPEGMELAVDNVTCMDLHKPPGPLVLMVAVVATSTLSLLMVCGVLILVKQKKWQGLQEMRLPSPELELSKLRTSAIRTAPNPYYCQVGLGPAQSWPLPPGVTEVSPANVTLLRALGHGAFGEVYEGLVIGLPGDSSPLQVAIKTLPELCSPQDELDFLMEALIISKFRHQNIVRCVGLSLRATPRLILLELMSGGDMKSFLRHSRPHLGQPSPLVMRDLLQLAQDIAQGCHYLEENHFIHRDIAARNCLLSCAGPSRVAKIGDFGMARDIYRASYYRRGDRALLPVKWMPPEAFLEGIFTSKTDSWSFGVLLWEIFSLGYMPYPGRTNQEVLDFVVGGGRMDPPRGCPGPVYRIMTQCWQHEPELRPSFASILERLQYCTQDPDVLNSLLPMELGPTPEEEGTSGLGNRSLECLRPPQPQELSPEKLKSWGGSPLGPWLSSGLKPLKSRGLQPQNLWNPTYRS
Sequence of UniProt Q16566 (whole entry, looked up): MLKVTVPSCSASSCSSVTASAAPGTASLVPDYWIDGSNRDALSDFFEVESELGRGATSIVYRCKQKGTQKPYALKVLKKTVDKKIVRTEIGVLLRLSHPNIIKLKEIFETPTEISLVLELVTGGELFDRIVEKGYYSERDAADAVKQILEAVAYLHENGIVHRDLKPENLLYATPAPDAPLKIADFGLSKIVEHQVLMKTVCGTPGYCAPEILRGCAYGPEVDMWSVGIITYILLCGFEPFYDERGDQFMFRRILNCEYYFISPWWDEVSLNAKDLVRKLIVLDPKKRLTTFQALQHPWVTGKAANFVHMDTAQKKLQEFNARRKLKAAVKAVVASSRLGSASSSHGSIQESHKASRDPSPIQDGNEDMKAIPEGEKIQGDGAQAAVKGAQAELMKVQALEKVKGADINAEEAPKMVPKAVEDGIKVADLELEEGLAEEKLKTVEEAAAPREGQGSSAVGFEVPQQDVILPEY
Sequence of UniProt Q15835 (whole entry, looked up): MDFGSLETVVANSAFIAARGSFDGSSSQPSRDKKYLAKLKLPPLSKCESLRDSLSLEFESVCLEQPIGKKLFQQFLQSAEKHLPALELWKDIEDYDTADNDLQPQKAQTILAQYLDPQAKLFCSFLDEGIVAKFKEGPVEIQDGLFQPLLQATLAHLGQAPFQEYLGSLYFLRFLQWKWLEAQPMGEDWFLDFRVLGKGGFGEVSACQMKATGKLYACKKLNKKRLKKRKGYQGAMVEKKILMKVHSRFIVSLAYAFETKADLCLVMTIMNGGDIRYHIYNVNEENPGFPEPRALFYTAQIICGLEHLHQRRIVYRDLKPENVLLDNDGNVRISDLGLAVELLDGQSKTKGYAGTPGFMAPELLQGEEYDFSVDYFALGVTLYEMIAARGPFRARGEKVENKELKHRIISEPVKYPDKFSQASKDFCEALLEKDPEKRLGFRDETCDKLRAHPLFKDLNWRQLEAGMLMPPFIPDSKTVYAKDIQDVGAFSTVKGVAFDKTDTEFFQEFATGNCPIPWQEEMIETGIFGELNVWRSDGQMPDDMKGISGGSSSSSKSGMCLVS
Sequence of UniProt Q8TDC3 (whole entry, looked up): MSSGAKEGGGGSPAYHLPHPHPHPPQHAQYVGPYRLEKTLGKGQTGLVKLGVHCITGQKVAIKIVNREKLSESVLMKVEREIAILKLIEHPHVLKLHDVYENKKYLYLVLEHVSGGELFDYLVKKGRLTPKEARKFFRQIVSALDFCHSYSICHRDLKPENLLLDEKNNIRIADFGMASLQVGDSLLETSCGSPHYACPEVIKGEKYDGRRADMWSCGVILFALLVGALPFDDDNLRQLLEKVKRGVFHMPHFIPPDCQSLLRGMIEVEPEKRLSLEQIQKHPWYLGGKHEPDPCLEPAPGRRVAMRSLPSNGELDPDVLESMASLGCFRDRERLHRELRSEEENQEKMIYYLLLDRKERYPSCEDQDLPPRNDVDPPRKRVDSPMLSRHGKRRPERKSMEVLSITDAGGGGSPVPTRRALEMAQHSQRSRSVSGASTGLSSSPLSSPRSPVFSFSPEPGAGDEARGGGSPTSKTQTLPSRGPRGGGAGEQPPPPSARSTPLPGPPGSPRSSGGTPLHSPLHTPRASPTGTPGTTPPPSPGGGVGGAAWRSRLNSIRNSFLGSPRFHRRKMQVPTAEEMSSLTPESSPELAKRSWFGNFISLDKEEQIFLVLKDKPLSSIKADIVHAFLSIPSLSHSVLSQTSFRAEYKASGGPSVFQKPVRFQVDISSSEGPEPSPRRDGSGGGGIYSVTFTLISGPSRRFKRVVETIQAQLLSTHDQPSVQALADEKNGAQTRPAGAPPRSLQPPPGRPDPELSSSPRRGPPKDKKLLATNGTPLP
Sequence of UniProt Q8TD08 (whole entry, looked up): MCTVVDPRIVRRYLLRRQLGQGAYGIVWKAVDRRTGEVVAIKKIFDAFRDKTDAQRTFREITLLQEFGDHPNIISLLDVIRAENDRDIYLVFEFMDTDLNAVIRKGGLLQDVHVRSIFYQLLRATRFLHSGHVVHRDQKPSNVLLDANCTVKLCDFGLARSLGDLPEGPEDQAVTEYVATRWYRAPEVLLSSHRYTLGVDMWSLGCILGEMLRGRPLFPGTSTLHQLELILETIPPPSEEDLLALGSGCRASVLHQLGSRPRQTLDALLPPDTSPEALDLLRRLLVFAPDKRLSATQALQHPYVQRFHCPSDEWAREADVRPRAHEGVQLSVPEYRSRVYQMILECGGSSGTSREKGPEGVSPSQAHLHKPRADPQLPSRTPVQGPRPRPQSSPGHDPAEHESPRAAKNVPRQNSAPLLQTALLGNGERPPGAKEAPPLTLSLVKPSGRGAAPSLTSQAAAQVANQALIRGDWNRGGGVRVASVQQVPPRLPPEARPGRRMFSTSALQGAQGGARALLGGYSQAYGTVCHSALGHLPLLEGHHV

Sample 1 — concentration: 1 µM
SMILES: CCC1(c2cccc(-c3cn(C)nc3C)c2)C2=C(Nc3n[nH]cc31)C(F)C(C)(C)CC2=O (single isomer, unassigned)
target	test	scale	remaining binding [%]
STK39 (Homo sapiens, UniProt Q9UEW8)	kinase binding, KINOMEscan	relative to: DMSO control	88
LTK (Homo sapiens, UniProt P29376)	binding, competition with immobilised ligand		100
BRSK1 (Homo sapiens, UniProt Q8TDC3)	kinase binding, KINOMEscan	relative to: DMSO control	100
FES (Homo sapiens, UniProt P07332)	binding, competition with immobilised ligand		100
GRK1 (Homo sapiens, UniProt Q15835)	binding, competition with immobilised ligand		100
PLK1 (Homo sapiens, UniProt P53350)	binding, competition with immobilised ligand		100
CAMK4 (Homo sapiens, UniProt Q16566)	binding, competition with immobilised ligand		93
MAPK15 (Homo sapiens, UniProt Q8TD08)	kinase binding, KINOMEscan	relative to: DMSO control	100

Sample 2 — technique: FLIPR membrane potential; cell line: CHO-BC; concentration: concentration not given; setting: unit not given; relative to: fraction of control
Target: Sodium-dependent neutral amino acid transporter B(0)AT1 (SLC6A19, Homo sapiens, UniProt Q695T7)
Sequence of UniProt Q695T7 (whole entry, looked up): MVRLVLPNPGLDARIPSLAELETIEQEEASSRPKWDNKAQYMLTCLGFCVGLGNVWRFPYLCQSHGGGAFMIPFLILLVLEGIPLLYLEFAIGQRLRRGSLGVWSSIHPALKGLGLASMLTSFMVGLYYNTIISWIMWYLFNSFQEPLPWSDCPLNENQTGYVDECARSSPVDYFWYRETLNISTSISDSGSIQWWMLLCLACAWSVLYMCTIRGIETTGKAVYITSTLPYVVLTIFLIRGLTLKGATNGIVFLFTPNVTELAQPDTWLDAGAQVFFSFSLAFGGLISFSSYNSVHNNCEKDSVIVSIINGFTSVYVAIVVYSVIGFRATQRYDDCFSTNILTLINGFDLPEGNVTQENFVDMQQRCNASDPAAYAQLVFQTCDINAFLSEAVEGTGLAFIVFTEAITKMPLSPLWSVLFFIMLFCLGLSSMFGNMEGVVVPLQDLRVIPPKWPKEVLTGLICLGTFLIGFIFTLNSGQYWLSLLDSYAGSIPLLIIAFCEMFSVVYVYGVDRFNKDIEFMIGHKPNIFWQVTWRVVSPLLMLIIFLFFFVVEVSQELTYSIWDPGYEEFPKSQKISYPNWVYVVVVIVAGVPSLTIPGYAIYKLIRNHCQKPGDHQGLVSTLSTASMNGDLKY
SMILES	remaining activity
CC(C)NC(=O)COc1ccc(I)cc1	0.213
Cc1cc(OCC(=O)NC(C)C)cc(C)c1Br	0.233
CC(C)NC(=O)COc1ccc(Cl)cc1	0.464
Cc1cc(NCC(=O)NC(C)C)cc(C)c1Cl	0.102
CCNC(=O)COc1cc(C)c(Cl)c(C)c1	0.154
CC(C)NC(=O)COc1ccc2ccccc2c1	0.131
Cc1cc(NCC(=O)NC(C)C)cc(C)c1I	0.0941
Cc1cc(NCC(=O)NC(C)C)cc(C)c1Br	0.0995

Mixed results
SMILES	tested on	test	test system	conditions	scale	measurement	result
FC(F)(F)c1ccc(C2=NOC3(NC(c4ccccc4)=NO3)N2c2ccccc2)cc1 (stereo not drawn)	Plasmodium falciparum	LC-MS	infected erythrocytes, 3D7	10 µM, 5 h	relative to: DMSO	dihydroorotate level	15 fold
Cn1cc(-c2cccc(CN3CCC4(CC3)COc3c4ccc4c3CN([C@H]3CCC(=O)NC3=O)C4=O)c2)cn1	Caco-2			concentration not given		permeability (basolateral to apical)	23.6%

A few entries again (sample 2):
SMILES	remaining activity
CCNC(=O)COc1cc(C)c(Cl)c(C)c1	0.154
Cc1cc(NCC(=O)NC(C)C)cc(C)c1I	0.0941
